Assay results collected from several papers.
A part holds a random share of what one study measured. Positions count from the first letter of the parent shown.

Study 1 — target: CCNE2, cyclin fold, Cln2 fusion (human); method: yeast growth competition, sequencing; medium: yeast; setting: weak parent motif; relative to: not given; reading: higher = stronger binding
Parent: PKMYT1 docking peptide (human); SFEPRNLLSLFED
| Variant | normalised enrichment score |
| --- | --- |
| E12L | -0.186 |
| D13V | -0.104 |
| E12Q | 0.622 |
| R5T | -0.006 |
| S9E | 0.184 |
| F11Q | -0.428 |
| L7G | -0.252 |
| S1T | -0.0215 |
| S1Q | -0.129 |

Study 2 — target: UBE2N UBC core domain (UniProt P61088); method: yeast two-hybrid; medium: yeast; setting: mostly zero background; relative to: not given; reading: higher = stronger interaction
B1: RFPL2 RING domain (UniProt O75678); chain MAALFQEASSCPVCSDYLEKPMSLECGCAVCLKCINSLQKEPHGEDLLCCCSSMVSRKNKIRR
B2: TRIM10 RING domain (UniProt Q9UDY6); chain SVTSLADEVNCPICQGTLREPVTIDCGHNFCRACLTRYCEIPGPDLEESPTCPLCKEPFRPGSFRP
B3: TRIM35 RING domain (UniProt Q9UPQ4); chain PSRSFKEELLCAVCYDPFRDAVTLRCGHNFCRGCVSRCWEVQVSPTCPVCKDRASPADLRT
B4: PHF7 RING domain (UniProt Q9BWX1); chain IQHGHVGEESCILCCEDLSQQSVENIQSPCCSQAIYHRKCIQKYAHTSAKHFFKCPQCNNRKEFPQEML
B5: RNF14 RING domain (UniProt Q9UBS8); chain IKCFNSKLFLCSICFCEKLGSECMYFLECRHVYCKACLKDYFEIQIRDGQVQCLNCPEPKCPSVATPGQVK
B6: UBE4A RING domain (UniProt Q14139); chain LQQQEEETYADACDEFLDPIMSTLMCDPVVLPSSRVTVDRSTIARHLLSDQTDPFNRSPLTMDQIRPNTELKEKIQRWLAERKQQKEQLE
B7: TRIM15 RING domain (UniProt Q9C019); chain SLKVVHELPACTLCAGPLEDAVTIPCGHTFCRLCLPALSQMGAQSSGKILLCPLCQEEEQAETPMA
Construct (chain): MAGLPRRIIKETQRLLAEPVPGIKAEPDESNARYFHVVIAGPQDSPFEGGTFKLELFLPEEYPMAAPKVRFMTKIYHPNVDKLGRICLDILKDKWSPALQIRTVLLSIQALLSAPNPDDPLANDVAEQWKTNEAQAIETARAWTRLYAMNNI
| Molecule | lacZ reporter activity |
| --- | --- |
| B1 (RFPL2 RING domain) | 0 |
| B2 (TRIM10 RING domain) | 0 |
| KIKDLNEHIVCCLCAGYFVDATTITECLHTFCKSCIVKYLQTSKYCPMCNIKIHETQPLL (PCGF1 RING domain (UniProt Q9BSM1)) | 0 |
| B3 (TRIM35 RING domain) | 0 |
| B4 (PHF7 RING domain) | 0 |
| B5 (RNF14 RING domain) | 0 |
| B6 (UBE4A RING domain) | 0 |
| B7 (TRIM15 RING domain) | 0 |

Study 3 — method: protein binding microarray; molecule type: double-stranded DNA, one strand shown; medium: in vitro; tested at: not given; relative to: not given; reading: higher = stronger binding
Target: Histone acetyltransferase KAT6A, both winged helices, GST fusion (KAT6A, Homo sapiens, UniProt Q92794, residues 1-181)
Setting: 8-mer, flanks averaged, mean of 2 arrays, mostly near background
Residues (chain): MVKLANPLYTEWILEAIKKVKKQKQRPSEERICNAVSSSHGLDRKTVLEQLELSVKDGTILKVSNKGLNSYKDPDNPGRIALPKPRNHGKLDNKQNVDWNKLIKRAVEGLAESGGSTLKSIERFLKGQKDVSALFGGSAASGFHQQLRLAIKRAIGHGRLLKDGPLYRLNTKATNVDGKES
| Sequence | E-score |
| --- | --- |
| AGCGTCCC | 0.0925 |
| AGGTACAT | -0.178 |
| GCACCCCC | -0.0846 |
| ACCCAACT | -0.297 |
| AGAAACGA | -0.188 |
| GTGTTAAC | 0.14 |
| GAGGGTGC | -0.127 |
| AATCGTTA | 0.021 |
| TGGATCCA | -0.014 |
| CGAGAAGA | -0.0757 |
| AACCAAAG | -0.257 |
| AAACATCT | 0.014 |
| ACGCAAGT | 0.0719 |
| ATCAGTCA | -0.0409 |
| CGACAAGC | 0.108 |
| ACATTGGG | -0.096 |
| GTTACGCA | 0.134 |
| CAGCCCAC | -0.128 |
| AATACGCA | 0.0244 |
| GTGACCAC | -0.0322 |
| AGAAAAAT | -0.15 |
| AGGTGTCG | 0.0411 |

Study 4 — method: DHFR PCA, deep sequencing; medium: yeast; together with: (+)-ABA 17 µM; relative to: wild-type fitted maximum; reading: higher = stronger binding
Target: ABI1, truncated, D143A, DHFR fusion (Arabidopsis thaliana)
Setting: methotrexate growth selection, single substitutions
Parent: PYL1, truncated, DHFR fusion (Arabidopsis thaliana); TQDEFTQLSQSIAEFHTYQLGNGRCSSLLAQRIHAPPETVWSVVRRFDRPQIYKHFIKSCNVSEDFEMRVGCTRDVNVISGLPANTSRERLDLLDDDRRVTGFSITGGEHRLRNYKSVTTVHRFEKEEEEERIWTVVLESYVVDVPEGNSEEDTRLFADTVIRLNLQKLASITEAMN
| Variant | relative binding score |
| --- | --- |
| Y18A | 60.3% |
| L112Y | -4.65% |
| R45T | 0.745% |
| I57F | -13.8% |
| I33N | -14.5% |
| E127T | 88.9% |
| A84L | 7.51% |
| S150C | 69.8% |
| T154C | 79.1% |
| Y53I | 14.4% |
| S104M | 8.07% |
| F56P | 7.14% |
| N149H | 9.5% |
| K126M | 91.1% |
| R163E | 35.4% |

Study 5 — method: protein-binding microarray; molecule type: double-stranded DNA, one strand shown; medium: in vitro; tested at: 250 nM; setting: 60-bp whole probe; together with: salmon DNA 0.4 mg/ml; relative to: random background probes; reading: higher = stronger binding; shared flanks, not repeated: GCCTAGCAC … GTCTTGATTCGCTTGACGCTGCTG
Target: Interferon regulatory factor 7, full length, phosphomimetic (IRF7, Homo sapiens, UniProt Q92985, residues 1-503, S101K/S471D/S472D/S475D/S476D/S477D/S483D/S484D/S487D)
UniProt Q92985, sequence (whole entry, unmodified, looked up): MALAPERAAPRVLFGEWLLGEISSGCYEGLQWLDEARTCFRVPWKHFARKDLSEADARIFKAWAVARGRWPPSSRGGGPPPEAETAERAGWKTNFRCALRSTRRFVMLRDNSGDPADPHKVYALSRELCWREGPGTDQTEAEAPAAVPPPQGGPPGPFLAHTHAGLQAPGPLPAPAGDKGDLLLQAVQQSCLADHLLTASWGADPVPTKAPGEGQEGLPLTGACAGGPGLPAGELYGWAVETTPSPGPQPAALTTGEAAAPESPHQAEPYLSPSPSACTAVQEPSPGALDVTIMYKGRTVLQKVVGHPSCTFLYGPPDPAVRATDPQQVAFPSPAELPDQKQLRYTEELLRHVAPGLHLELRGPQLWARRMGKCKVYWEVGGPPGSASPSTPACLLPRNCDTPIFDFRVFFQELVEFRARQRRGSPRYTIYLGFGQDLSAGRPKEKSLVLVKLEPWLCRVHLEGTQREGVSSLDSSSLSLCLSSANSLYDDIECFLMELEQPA
| Sequence | log fluorescence |
| --- | --- |
| GACGATATCGGGTTTCGAGAAGTGCTA | 1.08 z-score |
| TACGATTTCGGGACTGGAGACGTGCTA | 0.375 z-score |
| GACGATCTCAGTAGCGAGACGTGCTAG | -0.235 z-score |
| TTAGTTTTCGGGACTGGGTTAGTGCTA | 1.19 z-score |
| TTTTGAAGTTTGGCGTTGACGTGCTAG | -0.504 z-score |
| TTAGGTATCGGAATCGGTTAGTGCTAG | 2.64 z-score |
| GACGGTTTCCTCTCCCTGACGTGCTAG | 1.37 z-score |
| TTAGGTCACGGACTGGGTTAGTGCTAG | 0.0373 z-score |
| GACGGACTGGACCCTGGGGACGTGCTA | -0.56 z-score |
| GAAGGACTGGACACTGGGGACGTGCTA | -0.757 z-score |
| TCATCAATCATTTTCGTACTGTGCTAG | 0.925 z-score |
| CTAGGTTTCGACTTTCGGTTAGTGCTA | 11.2 z-score |
| TTAGGAATGGACTTTCGGTTAGTGCTA | 0.985 z-score |
| TTAGATATCAGTCTGGATTAGTGCTAG | -0.335 z-score |
| TTAGGATCCCTTTTCCTTTAGTGCTAG | 2.01 z-score |
| TCAATGGTCCTGGTTTCAACTGTGCTA | 0.495 z-score |
| TTAGGACTGGGGTATCGGCTAGTGCTA | -0.657 z-score |
| TTTTCAGCATCGCTCAGCACGTGCTAG | 0.602 z-score |
| AACGGTATCGGGACTGGGGACGTGCTA | -0.0606 z-score |
| TTAGATCTCAGTATCGATTTGTGCTAG | 3.11 z-score |
| GACGATATCGGGTTTCGATACGTGCTA | 5.15 z-score |
| TTTGATTTCAGTCTCGATTAGTGCTAG | 1.64 z-score |
| CTAGGTTTCCTTATCCTTTAGTGCTAG | 3.22 z-score |
| CACGATTTCAGTTCCGAGACGTGCTAG | 0.859 z-score |
| TAAGGTATCGACTATCGGTTAGTGCTA | 0.437 z-score |
